Experimental data collected from several papers.
Parts stem from different laboratories: compare values within a part only.
Sequence of UniProt P33981 (whole entry, looked up): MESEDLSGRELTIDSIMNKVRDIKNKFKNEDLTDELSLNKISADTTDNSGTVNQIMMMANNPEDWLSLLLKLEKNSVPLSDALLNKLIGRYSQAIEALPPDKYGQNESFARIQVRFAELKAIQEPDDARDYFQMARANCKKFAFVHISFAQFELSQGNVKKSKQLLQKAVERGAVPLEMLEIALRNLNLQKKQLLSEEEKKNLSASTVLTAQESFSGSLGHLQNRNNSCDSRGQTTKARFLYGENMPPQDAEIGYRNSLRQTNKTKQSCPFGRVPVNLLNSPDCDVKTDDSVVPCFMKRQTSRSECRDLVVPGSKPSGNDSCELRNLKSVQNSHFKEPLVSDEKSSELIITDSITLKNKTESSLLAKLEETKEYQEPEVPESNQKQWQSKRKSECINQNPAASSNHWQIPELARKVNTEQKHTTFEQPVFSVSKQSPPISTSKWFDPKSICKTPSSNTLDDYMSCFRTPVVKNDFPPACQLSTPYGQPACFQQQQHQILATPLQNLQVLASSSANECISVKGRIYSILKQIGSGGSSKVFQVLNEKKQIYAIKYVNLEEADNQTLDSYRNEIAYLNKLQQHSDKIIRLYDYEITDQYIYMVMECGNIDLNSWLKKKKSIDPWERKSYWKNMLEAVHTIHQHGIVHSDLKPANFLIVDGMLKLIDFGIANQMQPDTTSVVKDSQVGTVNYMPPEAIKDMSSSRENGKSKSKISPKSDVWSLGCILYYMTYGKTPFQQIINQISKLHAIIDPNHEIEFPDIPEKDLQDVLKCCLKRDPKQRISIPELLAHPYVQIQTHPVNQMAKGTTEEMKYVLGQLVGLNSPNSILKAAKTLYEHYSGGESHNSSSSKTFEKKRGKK
Sequence of UniProt Q9P2K8 (whole entry, unmodified, looked up): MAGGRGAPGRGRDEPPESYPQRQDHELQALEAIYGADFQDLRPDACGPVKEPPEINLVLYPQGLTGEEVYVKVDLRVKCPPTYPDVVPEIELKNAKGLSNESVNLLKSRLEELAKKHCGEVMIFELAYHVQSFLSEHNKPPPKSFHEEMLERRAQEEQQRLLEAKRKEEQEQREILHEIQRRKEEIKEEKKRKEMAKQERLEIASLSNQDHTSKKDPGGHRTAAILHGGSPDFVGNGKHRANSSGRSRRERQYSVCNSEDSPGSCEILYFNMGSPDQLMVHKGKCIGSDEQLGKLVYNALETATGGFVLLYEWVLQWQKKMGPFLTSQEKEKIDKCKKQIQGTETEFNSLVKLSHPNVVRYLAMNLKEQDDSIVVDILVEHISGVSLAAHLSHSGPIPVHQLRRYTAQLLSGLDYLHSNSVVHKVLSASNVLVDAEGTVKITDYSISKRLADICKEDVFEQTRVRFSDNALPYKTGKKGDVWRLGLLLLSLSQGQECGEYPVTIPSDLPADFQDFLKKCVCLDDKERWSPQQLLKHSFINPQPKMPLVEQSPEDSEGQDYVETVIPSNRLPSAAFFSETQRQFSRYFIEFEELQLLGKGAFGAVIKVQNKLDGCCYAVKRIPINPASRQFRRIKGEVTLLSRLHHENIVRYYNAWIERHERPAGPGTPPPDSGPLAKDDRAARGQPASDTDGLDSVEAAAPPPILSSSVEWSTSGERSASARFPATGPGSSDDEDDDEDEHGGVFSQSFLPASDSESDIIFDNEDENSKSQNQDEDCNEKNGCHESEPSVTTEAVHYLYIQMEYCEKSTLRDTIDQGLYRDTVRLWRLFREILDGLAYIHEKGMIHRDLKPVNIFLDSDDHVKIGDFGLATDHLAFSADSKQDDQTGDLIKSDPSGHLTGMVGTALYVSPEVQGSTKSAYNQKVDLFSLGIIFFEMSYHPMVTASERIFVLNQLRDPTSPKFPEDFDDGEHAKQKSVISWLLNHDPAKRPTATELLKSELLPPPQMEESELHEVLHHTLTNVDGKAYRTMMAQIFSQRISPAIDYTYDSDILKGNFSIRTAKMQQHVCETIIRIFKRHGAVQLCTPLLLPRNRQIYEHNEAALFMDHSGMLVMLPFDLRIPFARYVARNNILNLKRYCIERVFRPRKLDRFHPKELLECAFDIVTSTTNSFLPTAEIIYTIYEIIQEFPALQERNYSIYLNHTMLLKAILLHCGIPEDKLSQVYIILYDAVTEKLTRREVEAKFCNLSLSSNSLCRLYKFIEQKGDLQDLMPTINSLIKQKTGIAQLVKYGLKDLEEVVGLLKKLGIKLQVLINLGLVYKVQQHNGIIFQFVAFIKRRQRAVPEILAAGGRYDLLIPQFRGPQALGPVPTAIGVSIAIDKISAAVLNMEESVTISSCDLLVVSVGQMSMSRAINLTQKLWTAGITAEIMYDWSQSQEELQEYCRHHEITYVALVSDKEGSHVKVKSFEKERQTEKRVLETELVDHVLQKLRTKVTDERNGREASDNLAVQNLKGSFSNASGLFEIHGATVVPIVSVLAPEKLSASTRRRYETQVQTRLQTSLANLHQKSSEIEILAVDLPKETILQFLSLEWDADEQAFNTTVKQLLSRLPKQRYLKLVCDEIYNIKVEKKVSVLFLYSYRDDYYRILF
Sequence of UniProt P36894 (whole entry, looked up): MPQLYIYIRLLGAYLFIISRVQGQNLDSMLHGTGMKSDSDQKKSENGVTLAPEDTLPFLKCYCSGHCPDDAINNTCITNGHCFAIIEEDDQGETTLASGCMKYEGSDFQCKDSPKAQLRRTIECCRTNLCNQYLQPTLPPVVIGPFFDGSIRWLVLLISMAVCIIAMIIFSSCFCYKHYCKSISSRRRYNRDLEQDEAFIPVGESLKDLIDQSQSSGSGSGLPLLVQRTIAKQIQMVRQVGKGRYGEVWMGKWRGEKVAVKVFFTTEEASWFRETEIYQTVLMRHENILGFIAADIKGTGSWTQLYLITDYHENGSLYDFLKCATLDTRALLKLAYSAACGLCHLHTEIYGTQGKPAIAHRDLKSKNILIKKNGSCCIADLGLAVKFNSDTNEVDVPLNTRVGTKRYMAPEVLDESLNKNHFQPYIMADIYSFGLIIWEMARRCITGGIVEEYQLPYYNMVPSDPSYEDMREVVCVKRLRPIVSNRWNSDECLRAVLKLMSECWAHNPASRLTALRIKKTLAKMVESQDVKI
Sequence of UniProt Q9BZL6 (whole entry, looked up): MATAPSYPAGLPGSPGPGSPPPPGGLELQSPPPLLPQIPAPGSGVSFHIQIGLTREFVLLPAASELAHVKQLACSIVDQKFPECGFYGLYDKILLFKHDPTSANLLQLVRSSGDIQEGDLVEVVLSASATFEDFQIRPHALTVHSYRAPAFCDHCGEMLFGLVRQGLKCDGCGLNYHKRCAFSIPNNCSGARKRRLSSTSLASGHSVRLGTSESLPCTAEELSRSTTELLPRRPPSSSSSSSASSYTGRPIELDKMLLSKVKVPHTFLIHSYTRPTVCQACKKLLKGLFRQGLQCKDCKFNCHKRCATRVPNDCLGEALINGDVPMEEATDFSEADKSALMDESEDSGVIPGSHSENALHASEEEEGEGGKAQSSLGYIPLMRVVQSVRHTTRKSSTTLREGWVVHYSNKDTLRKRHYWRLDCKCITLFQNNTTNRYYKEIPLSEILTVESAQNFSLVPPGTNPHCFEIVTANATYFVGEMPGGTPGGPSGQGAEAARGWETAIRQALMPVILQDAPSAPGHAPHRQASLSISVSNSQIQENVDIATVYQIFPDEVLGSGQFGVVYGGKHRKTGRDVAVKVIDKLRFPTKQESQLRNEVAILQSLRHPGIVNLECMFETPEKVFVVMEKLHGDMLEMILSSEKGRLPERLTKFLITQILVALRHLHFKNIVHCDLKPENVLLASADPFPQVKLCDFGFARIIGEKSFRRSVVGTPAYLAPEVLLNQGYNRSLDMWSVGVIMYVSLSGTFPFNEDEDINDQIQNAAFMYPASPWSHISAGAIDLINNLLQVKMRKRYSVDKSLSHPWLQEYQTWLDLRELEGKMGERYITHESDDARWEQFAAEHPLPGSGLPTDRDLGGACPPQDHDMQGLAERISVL
Sequence of UniProt P52564 (whole entry, looked up): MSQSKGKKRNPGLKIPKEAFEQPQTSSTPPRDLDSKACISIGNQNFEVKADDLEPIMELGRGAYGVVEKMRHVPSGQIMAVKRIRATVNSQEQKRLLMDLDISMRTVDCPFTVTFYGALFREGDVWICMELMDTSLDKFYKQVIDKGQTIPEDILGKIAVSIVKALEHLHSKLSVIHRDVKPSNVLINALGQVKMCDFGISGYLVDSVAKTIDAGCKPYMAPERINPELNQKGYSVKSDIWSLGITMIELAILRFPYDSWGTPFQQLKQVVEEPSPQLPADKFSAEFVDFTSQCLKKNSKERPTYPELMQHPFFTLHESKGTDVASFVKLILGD

Block 1 — method: competition with immobilised ligand; tested at: 1 µM
SMILES: O=C(NCc1ncc(C(F)(F)F)cc1Cl)c1ccc2c(c1)C1(CCS(=O)(=O)CC1)[C@H](C1CC1)N2S(=O)(=O)c1ccc(F)cc1
target | test | remaining binding [%]
Myosin light chain kinase family member 4 (MYLK4, Homo sapiens, UniProt Q86YV6) | cell-free assay | 100
Dual specificity mitogen-activated protein kinase kinase 2 (MAP2K2, Homo sapiens, UniProt P36507) | cell-free assay | 88
Bone morphogenetic protein receptor type-1A (BMPR1A, Homo sapiens, UniProt P36894) | binding | 100
Dual specificity protein kinase TTK (TTK, Homo sapiens, UniProt P33981) | cell-free assay | 78
Epidermal growth factor receptor (EGFR, Homo sapiens, UniProt P00533, del747-752/P753S) | cell-free assay | 100
Myosin-IIIa (MYO3A, Homo sapiens, UniProt Q8NEV4) | binding | 100
Serine/threonine-protein kinase WNK3 (WNK3, Homo sapiens, UniProt Q9BYP7) | cell-free assay | 86
Dual specificity mitogen-activated protein kinase kinase 6 (MAP2K6, Homo sapiens, UniProt P52564) | cell-free assay | 100
eIF-2-alpha kinase GCN2, C-terminal kinase domain (EIF2AK4, Homo sapiens, UniProt Q9P2K8, S808G) | cell-free assay | 88
Serine/threonine-protein kinase B-raf (BRAF, Homo sapiens, UniProt P15056, V600E) | cell-free assay | 84
Serine/threonine-protein kinase D2 (PRKD2, Homo sapiens, UniProt Q9BZL6) | cell-free assay | 98

Block 2 — dose: dose not given; baseline: vehicle
Compound: CC(=O)N[C@@H](Cc1c[nH]c2ccccc12)C(=O)N[C@@H](CCC(=O)C=[N+]=[N-])C(=O)OC(C)C
test | test system | log2 fold change
refers to: pyridoxamine | mouse, EL4 tumour-bearing, EL4 tumour | 0.00697
refers to: phosphopantetheine | mouse, EL4 tumour-bearing, EL4 tumour | -1.89
refers to: gamma-glutamylthreonine | mouse, EL4 tumour-bearing, EL4 tumour | -0.261
refers to: isobutyrylcarnitine | mouse, EL4 tumour, tumour | -0.332
refers to: N-acetylleucine | mouse, EL4 tumour-bearing, EL4 tumour | 0.192
refers to: guanosine | mouse, EL4 tumour-bearing, EL4 tumour | -0.536
refers to: glucuronate | mouse, EL4 tumour-bearing, EL4 tumour | 0.0398
refers to: glycine | mouse, EL4 tumour-bearing, EL4 tumour | -0.0577
refers to: cis/trans aconitate | Mus musculus, EL4 tumour | -0.446
refers to: sulfate* | mouse, EL4 tumour-bearing, EL4 tumour | 0.27

Block 3 — observed: enzyme activity; action: inhibitor; tested at: 0.5 µM; baseline: control
Target: Tyrosine-protein kinase Fyn (FYN, Homo sapiens, UniProt P06241)
Sequence of UniProt P06241 (whole entry, looked up): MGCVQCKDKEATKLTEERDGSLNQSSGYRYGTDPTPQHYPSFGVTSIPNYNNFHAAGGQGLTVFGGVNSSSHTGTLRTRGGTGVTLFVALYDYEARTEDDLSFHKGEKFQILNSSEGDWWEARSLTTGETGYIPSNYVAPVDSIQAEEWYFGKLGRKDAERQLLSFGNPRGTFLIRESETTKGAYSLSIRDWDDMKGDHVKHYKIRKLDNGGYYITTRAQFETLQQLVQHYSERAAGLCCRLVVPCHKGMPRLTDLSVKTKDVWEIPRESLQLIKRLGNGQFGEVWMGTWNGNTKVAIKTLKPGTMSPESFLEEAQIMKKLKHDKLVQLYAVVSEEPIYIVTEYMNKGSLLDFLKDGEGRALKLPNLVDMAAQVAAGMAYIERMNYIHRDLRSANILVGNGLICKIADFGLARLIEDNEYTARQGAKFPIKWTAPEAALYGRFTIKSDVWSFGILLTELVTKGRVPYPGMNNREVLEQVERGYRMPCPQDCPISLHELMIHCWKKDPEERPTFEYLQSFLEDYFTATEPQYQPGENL
SMILES | remaining activity [%]
CC#CC(=O)Nc1cc2c(Nc3ccc(F)c(Cl)c3)ncnc2cn1 | 95.8
Oc1ccc(Nc2nc(-c3ccc(Cl)cc3)cs2)cc1 | 102
CC(=O)c1ccc(N2CCOCC2)cc1O | 103
CCc1[nH]c(-c2ccc(OC)cc2)nc1-c1ccncc1 | 95.1
CSc1nc(-c2ccnc(N[C@@H](C)c3ccccc3)c2)c(-c2ccc(F)cc2)[nH]1 (racemic) | 98.7
CC[n+]1c(/C=C/N(C)c2ccccc2)n(-c2ccccc2)c2ccc(-c3nc4ccccc4s3)cc21 | 99.2
Cc1cncc2cccc(S(=O)(=O)N3CCCN(C(=O)CN)C[C@@H]3C)c12 | 94.2
Nc1nccc(-c2c(-c3ccc(F)cc3)ncn2C2CCNCC2)n1 | 91.1
CCCC(=O)Oc1ccc2[nH]c(C(=O)c3cc4ccccc4[nH]3)cc2c1 | 102
N#CC(=C(N)Sc1ccc(N)cc1)c1ccccc1C(F)(F)F | 97.1
Nc1nc(Nc2ccc(S(N)(=O)=O)cc2)nn1C(=O)c1c(F)cccc1F | 78.6
CC(C)(C)n1nc(Cc2cccc3ccccc23)c2c(N)ncnc21 | 44.7
Fc1ccc(-c2nc3n(c2-c2ccncc2)CCS3)cc1 | 108
Nc1ncnc2c1cnn2-c1ccccc1 | 97.8

Further values, each from its own experiment
SMILES | test system | setting | endpoint | value
CC(C)n1cnc(-c2ccc(F)cc2)c1-c1ncc(C(=O)Nc2ccc(N3CCN(C)CC3)cc2)[nH]1 | idiopathic pulmonary fibrosis patients | 60 mg once daily, acute exacerbation hospitalization | mean hospitalized days | 23.3 days

Some of these lines once more (block 3):
SMILES | remaining activity [%]
CCc1[nH]c(-c2ccc(OC)cc2)nc1-c1ccncc1 | 95.1
CSc1nc(-c2ccnc(N[C@@H](C)c3ccccc3)c2)c(-c2ccc(F)cc2)[nH]1 (racemic) | 98.7
